Results collected from several papers.
A part holds a random share of what one study measured. “And” joins repeats or separate records; there may be more than shown. Values after ≈ are worked out from the molar mass of the structure shown.
Chain of UniProt P41143 (whole entry, looked up): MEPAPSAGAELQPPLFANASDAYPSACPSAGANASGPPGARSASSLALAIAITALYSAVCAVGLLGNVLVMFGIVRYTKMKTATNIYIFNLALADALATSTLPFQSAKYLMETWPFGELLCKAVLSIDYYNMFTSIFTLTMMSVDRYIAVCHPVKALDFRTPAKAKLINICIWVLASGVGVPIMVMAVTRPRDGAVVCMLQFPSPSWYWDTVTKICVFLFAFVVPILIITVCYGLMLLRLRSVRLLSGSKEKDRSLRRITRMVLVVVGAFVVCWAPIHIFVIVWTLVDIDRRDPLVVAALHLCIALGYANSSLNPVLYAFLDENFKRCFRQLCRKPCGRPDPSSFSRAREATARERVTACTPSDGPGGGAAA

Block 1 — organism: Staphylococcus aureus; strain: USA300
Structure (SMILES): CCCCC[C@@H]1CC(=O)N[C@@H](C(C)C)C(=O)N[C@H](CCC(=O)O)C(=O)N[C@@H](CCCNC(=N)N)C(=O)NCC(=O)N2CCC[C@H]2C(=O)N[C@@H](CC(C)C)C(=O)N[C@H](CCC(N)=O)C(=O)N[C@@H](CCC(=O)O)C(=O)N[C@H](Cc2ccc(O)cc2)C(=O)N[C@H](Cc2c[nH]c3ccccc23)C(=O)NCCCC(=O)O1
| with | MIC [µg/mL] |
| --- | --- |
| menaquinone 0.25 µg/mL | 8 (≈ 5.38 µM) |
| menaquinone 2 µg/mL | 16 (≈ 10.8 µM) |
| ubiquinone 16 µg/mL | 4 (≈ 2.69 µM) |
| menaquinone 32 µg/mL | > 64 |
| menaquinone 16 µg/mL | > 64 |
| menaquinone 0.5 µg/mL | 8 (≈ 5.38 µM) |
| ubiquinone 64 µg/mL | 8 (≈ 5.38 µM) |
| menaquinone 1 µg/mL | 16 (≈ 10.8 µM) |

Block 2 — observed: binding; technique: HTRF; tested at: 12.35 nM
Target: Membrane-associated tyrosine- and threonine-specific cdc2-inhibitory kinase (PKMYT1, Homo sapiens, UniProt Q99640)
Chain of UniProt Q99640 (whole entry, looked up): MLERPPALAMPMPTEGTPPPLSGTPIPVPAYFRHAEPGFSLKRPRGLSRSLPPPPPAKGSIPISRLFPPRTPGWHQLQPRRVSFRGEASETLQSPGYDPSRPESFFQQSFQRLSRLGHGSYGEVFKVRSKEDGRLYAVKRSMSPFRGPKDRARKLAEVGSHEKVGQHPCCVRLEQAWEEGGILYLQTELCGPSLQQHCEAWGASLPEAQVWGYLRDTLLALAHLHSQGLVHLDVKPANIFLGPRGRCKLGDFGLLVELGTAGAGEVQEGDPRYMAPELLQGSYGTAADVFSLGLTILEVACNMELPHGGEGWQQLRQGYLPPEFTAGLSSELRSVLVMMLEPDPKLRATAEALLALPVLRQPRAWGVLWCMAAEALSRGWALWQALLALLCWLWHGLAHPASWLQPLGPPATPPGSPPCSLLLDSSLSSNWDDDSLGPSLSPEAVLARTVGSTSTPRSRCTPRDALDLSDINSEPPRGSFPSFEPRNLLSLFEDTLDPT
| Compound | inhibition |
| --- | --- |
| Cc1ccc(O)c(C)c1-c1cnc2[nH]c(-c3cnc(N4CCC(CN5CCN(c6ccc(N7CCC(=O)NC7=O)cc6F)CC5)CC4)nc3)cc2c1C#N | 85% and 85.7% |
| Cc1ccc(O)c(C)c1-c1cnc2[nH]c(-c3cnc(N4CCC(CN5CCN(c6ccc(C(=O)NC7CCC(=O)NC7=O)c(F)c6)CC5)CC4)nc3)cc2c1C#N (racemic) | 84.2% and 82.8% |
| Cc1ccc(O)c(C)c1-c1cnc2[nH]c(-c3cnc(N4CCC(CN5CCN(c6ccc7c8c(cccc68)C(=O)N7C6CCC(=O)NC6=O)CC5)CC4)nc3)cc2c1C#N (racemic) | 64.2% and 58.4% |

Block 3 — cells: human cells
Compound: N=C(N)NCCCCCN1CC[C@]23c4c5ccc(O)c4O[C@H]2c2nc4ccccc4cc2C[C@@]3(O)[C@H]1C5
| target | EC50 [nM] |
| --- | --- |
| Delta-type opioid receptor, with GoB (OPRD1, Homo sapiens, UniProt P41143) | 1.39 |
| Delta-type opioid receptor, with Gz (OPRD1, Homo sapiens, UniProt P41143) | 1.28 |
| Delta-type opioid receptor, with Gi3 (OPRD1, Homo sapiens, UniProt P41143) | 4.25 |
| Delta-type opioid receptor, with GoA (OPRD1, Homo sapiens, UniProt P41143) | 3.47 |

Single results of other studies
| SMILES | cell line | relative to | measurement | result |
| --- | --- | --- | --- | --- |
| Cn1cc(-c2cccc(CN3CCC4(CC3)COc3c4ccc4c3CN([C@H]3CCC(=O)NC3=O)C4=O)c2)cn1 | Caco-2 | Papp B-A over Papp A-B | efflux ratio | 4.47 |

Repeated from above (block 2):
| Compound | inhibition |
| --- | --- |
| Cc1ccc(O)c(C)c1-c1cnc2[nH]c(-c3cnc(N4CCC(CN5CCN(c6ccc7c8c(cccc68)C(=O)N7C6CCC(=O)NC6=O)CC5)CC4)nc3)cc2c1C#N (racemic) | 64.2% and 58.4% |
